Published values of several laboratories.
Every numbered part comes from another study and shows a few of its results, in no order. Substitutions count along the parent as printed.

Set 1 — method: RNAcompete; form: RNA; medium: in vitro; tested at: 20 nM; setting: 7-mer, probes averaged, single round; relative to: mean of 7-mers; reading: higher = stronger binding
Target: PABPC1L2, full length, GST fusion (mouse, UniProt A0ABA7IW68)
Residues (chain): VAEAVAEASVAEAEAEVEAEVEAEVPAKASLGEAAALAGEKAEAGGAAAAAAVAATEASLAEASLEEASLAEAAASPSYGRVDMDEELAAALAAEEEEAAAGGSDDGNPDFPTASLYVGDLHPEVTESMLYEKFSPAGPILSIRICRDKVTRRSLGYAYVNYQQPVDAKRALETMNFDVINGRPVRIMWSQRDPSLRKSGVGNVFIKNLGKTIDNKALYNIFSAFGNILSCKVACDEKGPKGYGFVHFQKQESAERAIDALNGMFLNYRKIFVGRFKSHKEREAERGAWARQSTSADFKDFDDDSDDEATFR
Oligonucleotide	7-mer Z-score
UUAUUCU	-0.393
CAUCAGA	0.0623
AUUUGUA	-0.0663
GAUAUGC	-0.177
CGAGACG	0.0261
GAGGGUG	0.16
CAAGCGG	0.0768
CAUGAGC	-0.133
AGCUGGA	0.037
GGGGAGA	0.49
ACAGACC	0.0315
GUUGUAC	-0.358
GUGGGAG	0.189
UCCGAAA	0.695
GGCAGCG	0.175
GGGCGAG	0.376
GGCUUCC	-0.365
GCCCAUG	-0.407
GCACGCC	-0.142

Set 2 — method: RNA Bind-n-Seq; form: RNA; medium: in vitro; tested at: not given; setting: RNA with constant flanks, ends assumed; relative to: input RNA pool; reading: higher = stronger binding
Target: RING finger protein unkempt homolog, zinc fingers 1-6, GST-SBP tag (UNK, Homo sapiens, UniProt Q9C0B0, residues 30-357)
Residues (chain): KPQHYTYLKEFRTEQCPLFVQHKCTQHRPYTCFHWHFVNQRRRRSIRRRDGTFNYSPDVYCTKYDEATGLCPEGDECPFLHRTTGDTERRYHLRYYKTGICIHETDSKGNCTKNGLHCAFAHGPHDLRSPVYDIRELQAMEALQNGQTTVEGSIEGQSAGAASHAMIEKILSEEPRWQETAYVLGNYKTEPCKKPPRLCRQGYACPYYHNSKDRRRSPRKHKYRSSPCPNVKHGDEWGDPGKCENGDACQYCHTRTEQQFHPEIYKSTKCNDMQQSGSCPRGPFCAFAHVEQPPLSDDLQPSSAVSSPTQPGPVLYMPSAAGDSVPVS
Oligonucleotide	bound/input enrichment [ratio]
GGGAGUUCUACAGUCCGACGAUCAUAACCAUCUAUCGGGAAGAGGGCAUUCUAGGAUUUUUCGCGGGUCUUGUUCCUCGCCUUCCCGGUGACAUCCUUUCUUUGUGGCUGUGUAACUCACUGGCCUACCUCGUCAAUACCUAUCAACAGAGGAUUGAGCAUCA	0.259
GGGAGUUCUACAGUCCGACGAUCCAGAAUAAUAAGCUGAAUAGAAUCUGACCAUUGGCUUUCACCUGGCCAGGACCUUCUAUGCCGCUCUCCUUUUGUGGCCCAUGUGCUGCAUCCUCUGCCCUCAGUGUGCAACUGGCCCCCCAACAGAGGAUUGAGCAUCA	0.555
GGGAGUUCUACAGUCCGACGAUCUGUACCGACCUUCUGAACAAGGCCAACACCUAUGCAGAGCAACAUUUUGCAGAUGUUGUACUCCGUGAAGAAUUUCUCAAUCUUGGCAUCGAACAAGUGUGCAGCUUAAUCUCAAGUGACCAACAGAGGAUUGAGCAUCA	0.0597
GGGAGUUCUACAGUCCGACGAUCUUUCACAGAGGCUGACCACCUUACACUGCUGGGUGGUCACAACUGCUCACCAUGUGAACACCGUACCUCAGUUCUGUCCUUGGCUGCAAUCGUUGUGUGCUCAGUGUUUUCUCAUAGGCACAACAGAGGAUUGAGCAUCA	0.0933
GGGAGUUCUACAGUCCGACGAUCAUUUGCUGUCUUUAGAGGCCACGGCUUCAUUUCUAUGCGUAAAAAGCUCAUUUAGCAAUGCCGUUAUUUCAGUAUUUAUUUCUAUUAUGGAAUCCCUGGGGUUCGGAAUGUAACUUUGUACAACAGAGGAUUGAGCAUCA	0.59
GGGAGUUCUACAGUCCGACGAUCUCUGGAAGUGGAAUCCUUACUGCAUGUUUUGCACGUAUGGUUGGAUGUACUGGAAAAGUCACCGGAAUUGAUCACAUUAAAGAGCUAGUAGAUGACUCAGUAAAUAAUGUCAGGAAGGACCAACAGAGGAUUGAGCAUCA	0.476
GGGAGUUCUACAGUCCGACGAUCUUCACCACUCCUGGGUGCAUGAUUGAGGGUGAAGCAUCCACCAGCACUUCAAGGGGUCCACCGUAUUUUUUUUUUUGCUGCCUCAAAGUCCCCAAAGCCUUCGAGCAGAAGUGGCAGUAGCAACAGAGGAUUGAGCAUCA	0.628
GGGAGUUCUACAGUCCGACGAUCAUACAAGCCUUACCAACAAUUACAGAAACAUUAAACACUAUGACACAUUACCUUUUCCGCUAUUUUUAAUAGUCUUCUAUUUUCACUCUUGAUAAGCUUAUAAAAUCAUGAUUGAAUCAGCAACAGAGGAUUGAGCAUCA	1.66
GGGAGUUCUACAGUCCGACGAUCUUUUCUUUUUCUUUUUUCUUUCUUUUUUUUUUUUUUUUUUUUUUUGAGUUGUUGUUUGUUUUCCGAUCCACAGUACAUGAGAAUCCUUUUUUGACAAGCCUUGGAAAGCUGACACUGUCUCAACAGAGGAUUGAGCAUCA	1.92
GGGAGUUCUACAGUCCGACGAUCACCGCCAUCUACUGCUUCCUACGCUGCAUGGAGCCAGACCCUGAGAUCCCUUCUGCCUUCAACCGCCUCCAAAGGACUCUCAUUUAUUCCAUCUCACUUGGUGGGGACACAGACACCAUUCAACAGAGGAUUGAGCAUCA	0.231
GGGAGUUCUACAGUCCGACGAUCAAGUUCACUGGAAGUGAGAUUCGGGUGAGGGAUGACAAGAUGCCAUUGGCGCACCUUGCAACCGCUGUUGAAGCAGUUGGUUGGGCCCAUCCAGACACGAUCUGUCUCAUGGUCGCAAACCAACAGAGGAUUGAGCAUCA	0.101

Set 3 — target: CCNB1, cyclin fold, Cln2 fusion (human); method: yeast growth competition, sequencing; medium: yeast; setting: strong parent motif; relative to: not given; reading: higher = stronger binding
Starting sequence: PKN2 docking peptide (human); VSAVRKLDFSDTM; partner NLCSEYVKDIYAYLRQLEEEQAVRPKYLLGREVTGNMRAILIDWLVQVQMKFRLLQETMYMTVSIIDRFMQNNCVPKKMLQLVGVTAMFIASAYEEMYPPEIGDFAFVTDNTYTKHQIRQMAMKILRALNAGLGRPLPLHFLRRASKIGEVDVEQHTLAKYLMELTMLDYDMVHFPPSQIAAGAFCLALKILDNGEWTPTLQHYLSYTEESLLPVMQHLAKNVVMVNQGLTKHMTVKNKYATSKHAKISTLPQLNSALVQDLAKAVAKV
Variant	normalised enrichment score
VSAVRKLDMSDTM [F9M]	0.595
VSAVRKLDFWDTM [S10W]	2.23
VSAVRKLDFIDTM [S10I]	2.35
VSAVVKLDFSDTM [R5V]	1.59
VSAVRKLRFSDTM [D8R]	1.15
VSAVRKLDFFDTM [S10F]	2.48
VSAVRKLDFPDTM [S10P]	2.95
VSTVRKLDFSDTM [A3T]	3.59
VSAVNKLDFSDTM [R5N]	0.208
VSAVRNLDFSDTM [K6N]	0.792
VSAVRKLNFSDTM [D8N]	3.03
VSAVRILDFSDTM [K6I]	1.62

Set 4 — method: RNA Bind-n-Seq; form: RNA; medium: in vitro; tested at: 365 nM; relative to: no-protein control; reading: higher = stronger binding
Target: RNA binding protein fox-1 homolog 2, RRM domain, GST-SBP tag (RBFOX2, Homo sapiens, UniProt O43251-10, residues 100-194)
Setting: natural RNA segment, single round, ends assumed
Target sequence (chain): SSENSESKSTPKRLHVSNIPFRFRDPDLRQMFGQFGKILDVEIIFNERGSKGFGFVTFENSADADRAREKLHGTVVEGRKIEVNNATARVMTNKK
Oligonucleotide	RBNS enrichment (R)
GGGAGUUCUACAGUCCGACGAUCCUAAAUCUGGAGUUUUACAAAGAAGGAAACUGUAUCUUUAGGUUAAUCAAAGCUAUGCAUUUCAUAUAGCUUUUUCAUUUAAAACAAGACAAAGAAACAAAUUCCUAUGAUGGAAUUCUCGGGUGCCAA	1.52
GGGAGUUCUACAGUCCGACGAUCUGAAGUGCUUUACUUUUUGCACAAUUUUAAUAGCUUGCUAUUCAGUAAUACAUUAUAGUGAAUUCAUGAUCAAGGUUUCCUUAAAUUUAGCAUUGCAUUUCAGUACUGACUGGAAUUCUCGGGUGCCAA	0.44
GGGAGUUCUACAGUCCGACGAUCCUCCCCAAAUUGGGCAUUUAAUUCAUCUUUAAACUGGUUGUUCUGUUAGUCGCUAACUUAGUAAGUGCUUUUCUUAUAGAACCCCUUCUGACUGAGCAAUAUGCCUCCUUUGGAAUUCUCGGGUGCCAA	0.314
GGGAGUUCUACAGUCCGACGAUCCCCUCUGCCGGGGUCCGGAAGCGACAUCUCAGGAGGUAGCUCUCAGCAGAGUGAGGAUUCCUGCCUUUCGUAGAGUUUUGUGUGACUUUUUAAAUUAUUCAUGUGUCCCUUGGAAUUCUCGGGUGCCAA	0.54
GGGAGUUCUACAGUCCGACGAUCCCUCUUUUCUAUAUUUAUUUCAUAGAAAGUCUCCUGCGGGAGCGGAAAUGCAGUCCGGCCUAGGGCUCCCAGCCCUUGACUGUCCUCCUGUGAGGGCCUGAAGCUGGGCCUGGAAUUCUCGGGUGCCAA	0.3
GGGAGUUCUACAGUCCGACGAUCUUAUGCGUGCGAGAAGUCAGUGGUAACUGCUGCAGGGCUUAAUACAUUAGUGGUAACUGGUUUAAAAAACAAAGACUGUAAGCCUGUGUGUGCCACUGUUUGCUUCAACAUGGAAUUCUCGGGUGCCAA	0.662
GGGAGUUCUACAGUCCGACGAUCUAUGACAGAGGUUAGAGUCAGUACUGUUGGCGUAAGGAUUUCAUCUUUGGAACACAGGGUAUGCCUCUGGUUAAUAAGCUAAGCAAUAAAAUUACACGAAAUAUAAAUGUUGGAAUUCUCGGGUGCCAA	0.624
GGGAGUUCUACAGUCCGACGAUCGAAGGCAGUCGUCUCUGUUACACAGUGGCAGCUCUUGAGUUAUGCACUGUGAAGAAUGAGAAGGGAAAAGCAAAAAUUAUCCUUGUGAAAUAUCUGCUGAUUGUGCCCUAUGGAAUUCUCGGGUGCCAA	0.313
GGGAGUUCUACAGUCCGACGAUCAGAGACCCAGCCGGAGGGAUGCCAUUGCUGCGGGGUAGACUGAGUGCCAAGGCUCUUGGCACAGGACUCACAUCUGGGCCACUCAGCUUGACCGAAGGCUGUGUGUGAAAUGGAAUUCUCGGGUGCCAA	0.58

Excerpt of the above (set 2):
Oligonucleotide	bound/input enrichment [ratio]
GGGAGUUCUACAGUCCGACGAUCAUUUGCUGUCUUUAGAGGCCACGGCUUCAUUUCUAUGCGUAAAAAGCUCAUUUAGCAAUGCCGUUAUUUCAGUAUUUAUUUCUAUUAUGGAAUCCCUGGGGUUCGGAAUGUAACUUUGUACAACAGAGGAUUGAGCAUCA	0.59
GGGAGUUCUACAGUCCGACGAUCUCUGGAAGUGGAAUCCUUACUGCAUGUUUUGCACGUAUGGUUGGAUGUACUGGAAAAGUCACCGGAAUUGAUCACAUUAAAGAGCUAGUAGAUGACUCAGUAAAUAAUGUCAGGAAGGACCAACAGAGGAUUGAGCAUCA	0.476
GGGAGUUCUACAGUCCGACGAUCUUCACCACUCCUGGGUGCAUGAUUGAGGGUGAAGCAUCCACCAGCACUUCAAGGGGUCCACCGUAUUUUUUUUUUUGCUGCCUCAAAGUCCCCAAAGCCUUCGAGCAGAAGUGGCAGUAGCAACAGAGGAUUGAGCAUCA	0.628
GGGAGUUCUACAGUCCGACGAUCAUACAAGCCUUACCAACAAUUACAGAAACAUUAAACACUAUGACACAUUACCUUUUCCGCUAUUUUUAAUAGUCUUCUAUUUUCACUCUUGAUAAGCUUAUAAAAUCAUGAUUGAAUCAGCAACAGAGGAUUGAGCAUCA	1.66
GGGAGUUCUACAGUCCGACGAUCUUUUCUUUUUCUUUUUUCUUUCUUUUUUUUUUUUUUUUUUUUUUUGAGUUGUUGUUUGUUUUCCGAUCCACAGUACAUGAGAAUCCUUUUUUGACAAGCCUUGGAAAGCUGACACUGUCUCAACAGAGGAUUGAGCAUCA	1.92
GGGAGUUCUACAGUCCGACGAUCACCGCCAUCUACUGCUUCCUACGCUGCAUGGAGCCAGACCCUGAGAUCCCUUCUGCCUUCAACCGCCUCCAAAGGACUCUCAUUUAUUCCAUCUCACUUGGUGGGGACACAGACACCAUUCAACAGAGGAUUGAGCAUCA	0.231
